Measured values of several laboratories.
Every numbered part comes from another study and shows a few of its results, in no order. Changes are numbered by the printed parent chain.

Set 1
Target: ABI1, truncated, D143A, DHFR fusion (Arabidopsis thaliana)
Method: DHFR PCA, deep sequencing
Sample: yeast
Setting: methotrexate growth selection, single substitutions
Together with: (+)-ABA 0 µM
Reference: wild-type fitted maximum
Reading: higher = stronger binding
Starting sequence: PYL1, truncated, DHFR fusion (Arabidopsis thaliana); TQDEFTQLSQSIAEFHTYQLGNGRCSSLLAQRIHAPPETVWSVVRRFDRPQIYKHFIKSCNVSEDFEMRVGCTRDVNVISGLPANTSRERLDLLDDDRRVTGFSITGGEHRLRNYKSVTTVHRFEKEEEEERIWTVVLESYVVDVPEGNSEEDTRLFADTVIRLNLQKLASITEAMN
Change | relative binding score [%]
S27R | -0.214
T106H | 0.191
T173E | -6.43
L164F | -5.52
V136F | -6.71
Q51D | 20.7
R98F | -6.5
R88Y | 9.72
N22M | 16
R163M | 28.6

Set 2
Target: CCND1, cyclin fold, Cln2 fusion (human)
Method: yeast growth competition, sequencing
Sample: yeast
Setting: weak parent motif
Reference: not given
Reading: higher = stronger binding
Starting sequence: ORC1 docking peptide (human); PRARKRLELGNLG; partner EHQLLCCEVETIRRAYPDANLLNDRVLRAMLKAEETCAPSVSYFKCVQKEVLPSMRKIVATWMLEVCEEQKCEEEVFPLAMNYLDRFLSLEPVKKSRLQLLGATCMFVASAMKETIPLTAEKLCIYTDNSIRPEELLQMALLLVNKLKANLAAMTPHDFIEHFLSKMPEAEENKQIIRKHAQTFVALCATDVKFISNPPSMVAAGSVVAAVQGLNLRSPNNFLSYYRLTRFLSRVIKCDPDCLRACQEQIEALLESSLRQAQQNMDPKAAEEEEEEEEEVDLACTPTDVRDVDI
Change | normalised enrichment score
K5F | 0.0693
L9Q | -0.0334
L7F | -0.684
A3G | -0.748
K5A | -0.048
G13C | 0.0581
G13P | -0.241
A3H | 0.169
P1A | 0.172
P1E | 0.368
A3F | -0.113
A3E | 0.306
P1K | 0.368
K5L | -0.222
R2N | 0.37
L12D | -0.455
N11F | 0.245
G10L | 0.767
L7T | -0.767
R6D | 0.0538
N11R | 0.0666
L9N | -0.088
P1R | -0.036
E8V | 0.373
R6E | 0.0823

Set 3
Target: UBE2Z UBC core domain (UniProt Q9H832)
Sequence of UniProt Q9H832 (whole entry, looked up): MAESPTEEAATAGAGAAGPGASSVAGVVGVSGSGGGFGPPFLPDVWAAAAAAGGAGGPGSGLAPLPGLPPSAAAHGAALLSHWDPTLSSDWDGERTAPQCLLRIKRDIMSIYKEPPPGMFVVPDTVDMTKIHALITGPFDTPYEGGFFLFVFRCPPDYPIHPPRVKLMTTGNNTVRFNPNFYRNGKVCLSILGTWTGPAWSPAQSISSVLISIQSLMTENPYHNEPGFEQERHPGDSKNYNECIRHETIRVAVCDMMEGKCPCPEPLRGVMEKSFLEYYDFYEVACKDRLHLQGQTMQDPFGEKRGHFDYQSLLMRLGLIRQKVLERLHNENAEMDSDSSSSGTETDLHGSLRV
Method: yeast two-hybrid
Sample: yeast
Setting: mostly zero background
Reference: not given
Reading: higher = stronger interaction
B1: TRIM62 RING domain (UniProt Q9BVG3); chain MACSLKDELLCSICLSIYQDPVSLGCEHYFCRRCITEHWVRQEAQGARDCPECRRTFAEPALAP
B2: MDM4 RING domain (UniProt O15151); chain MEDCQNLLKPCSLCEKRPRDGNIIHGRTGHLVTCFHCARRLKKAGASCPICKKEIQLVIKVF
B3: ZMIZ2 RING domain (UniProt Q8NF64); chain GTIPGTPGPNGEDGVEQTAIKVSLKCPITFRRIQLPARGHDCRHIQCFDLESYLQLNCERGTWRCPVCNKTALLEGLEVDQYMLGILIYIQNSDYEEITIDPTCSWK
B4: MAP3K1 RING domain (UniProt Q13233); chain NSIKDEEEQMCPICLLGMLDEESLTVCEDGCRNKLHHHCMSIWAEECRRNREPLICPLCRSKWRSHDFYS
Sequence | lacZ reporter activity
NLSELTPYILCSICKGYLIDATTITECLHTFCKSCIVRHFYYSNRCPKCNIVVHQTQPLY (PCGF6 RING domain (UniProt Q9BYE7)) | 0
AVPSGLEENLCKICMDSPIDCVLLECGHMVTCTKCGKRMNECPICRQYVIRAVHVF (RFFL RING domain (UniProt Q8WZ73)) | 0
B1 (TRIM62 RING domain) | 0
B2 (MDM4 RING domain) | 0
KETIKKTTKPCPRCHVPVEKNGGCMHMKCPQPQCRLEWCWNCGCEWNRVCMG (PRKN RING domain (UniProt O60260)) | 0
FDGDVDPDLKCALCHKVLEDPLTTPCGHVFCAGCVLPWVVQEGSCPARCRGRLSAKELN (PDZRN3 RING domain (UniProt Q9UPQ7)) | 0
PEDRESLKSACVVCLSSFKSCVFLECGHVCSCTECYRALPEPKKCPICRQAITRVIPLY (MUL1 RING domain (UniProt Q969V5)) | 0
B3 (ZMIZ2 RING domain) | 0
GSRLQEINDVCAICYHEFTTSARITPCNHYFHALCLRKWLYIQDTCPMCHQKVYIEDDIK (RNF139 RING domain (UniProt Q8WU17)) | 3460
B4 (MAP3K1 RING domain) | 0
YQNEVDDDLVCHICLQPLLQPLDTPCGHTFCYKCLRNFLQEKDFCPLDRKRLHFKLCKK (LNX2 RING domain (UniProt Q8N448)) | 0

Set 4
Target: Ras GTPase-activating protein-binding protein 1, full length (G3BP1, Homo sapiens, UniProt Q13283)
Sequence of UniProt Q13283 (whole entry, looked up): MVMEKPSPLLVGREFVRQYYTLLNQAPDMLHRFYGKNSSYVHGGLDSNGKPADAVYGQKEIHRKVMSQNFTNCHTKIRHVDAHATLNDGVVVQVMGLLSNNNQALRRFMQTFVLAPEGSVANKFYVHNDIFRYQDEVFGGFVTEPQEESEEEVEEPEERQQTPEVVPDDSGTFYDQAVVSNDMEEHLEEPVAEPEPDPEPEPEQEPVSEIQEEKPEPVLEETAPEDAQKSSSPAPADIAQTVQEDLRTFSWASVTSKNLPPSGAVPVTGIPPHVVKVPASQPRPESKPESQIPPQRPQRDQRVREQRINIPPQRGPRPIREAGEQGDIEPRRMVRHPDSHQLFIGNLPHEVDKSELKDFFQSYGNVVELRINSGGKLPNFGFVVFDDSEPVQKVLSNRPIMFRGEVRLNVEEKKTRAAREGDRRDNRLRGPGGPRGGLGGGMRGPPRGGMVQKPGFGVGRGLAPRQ
Method: RNA Bind-n-Seq
Form: RNA
Sample: in vitro
Concentration: 200 nM
Setting: whole 134-nt RNA, ends assumed
Together with: 150 mM KCl
Reference: input library
Reading: higher = stronger binding
Shared flanks, not repeated: GGGAGUUCUACAGUCCGACGAUC … UGGAAUUCUCGGGUGUCAAGG
Strand | log2 enrichment
UGGCCCUGGUGGCAUGCGGGGAGGAAGAGGUGGCCUCAUGGAUCGUGGUGGUCCCGGUGGAAUGUUCAGAGGUAGCCGUGGUGGAGACAG | 0.173
CUGUGCUACACAUCGUAUGUACCGAAUCGGGGUUUGGGGAAAAAAAGGGGAAAAAAAGGGGAAAGUAUUAUGUUACGCCGUUCGGAUCUG | -0.213
ACCAUGCAGGUGGGCAUCUUUGGGAAAAGGGGCAAGGGGGGGAUAGGGAGGGGGGUAACACUUUGGGAACAGGUGGUCCCAGGUCGUUUC | 1.43
GCAGGAAGUAAAAACAAAUGGAAAUGCUUCGGAUAGUGGCAGGGGUGGGGGUUGCUAAGGAAAGGGUGGGAUGGGAGUGGGUAAAGCGUU | 1.03
UCGUUCCCCCCGCCACGAGAAGAAGAAGAAGGUCCGUAAAUACUGGGACGUGCCACCCCCAGGCUUUGAGCACAUCACCCCAAUGCAGUA | 0.708
GUCCUGUGCUACACAUCGUAUGUACCGAAUCGGGAGGGAAAAAAAGGGAAAAAAAGGGAAAGUAUUAUGUUACGCCGUUCGGAUCUGCAC | -0.194
ACCAUGCAAAUGGGCAUCUUUGGGAAGUGGGGCAAGGGGGGGAUAGGGAGGGGGGUAACACUUUGGGAACAGGUGGUCCCAGGUCGUUUC | 0.761
CACAGGCAACACGCACCCACACAGACACAGAGGGAAGGGGUUGGGAUGGGGACAGGGUGCACAGCAGGGCGGGGUAGGACCCCAGCCCCU | 1.8
AAGUCCUGUGCUACACAUCGUAUGUACCGAAUCGGAAAGGAAAAAAAGGAAAAAGGAAAGUAUUAUGUUACGCCGUUCGGAUCUGCACUU | -0.939
UAACUUUAGAGGAGGAUCUGAUGGAUAUGGCAGUGGUCGUGGAUUUGGGGAUGGCUAUAAUGGGUAUGGAGGAGGACCUGGAGGUGGCAA | 0.148
UCAAGUCCUGUGCUACACAUCGUAUGUACCGAAUCGGGCCCGGGCCCGGCCCGGGAAAGUAUUAUGUUACGCCGUUCGGAUCUGCACUUC | -1.19
CAAGUCCUGUGCUACACAUCGUAUGUACCGAAUCGGAAAAGGGAAAAGGGAAAAGGAAAGUAUUAUGUUACGCCGUUCGGAUCUGCACUU | -0.876
UCAAGUCCUGUGCUACACAUCGUAUGUACCGAAUCGGGAAAGGGAAAGGAAAGGAAAGUAUUAUGUUACGCCGUUCGGAUCUGCACUUCC | -0.974
UCCUGUGCUACACAUCGUAUGUACCGAAUCGGAAAAAAAGGAAAAAAAGGGAAAAAAAGGAAAGUAUUAUGUUACGCCGUUCGGAUCUGC | -0.382

Set 5
Target: BATF, bZIP domain (human)
Method: DHFR protein complementation
Sample: yeast
Setting: single substitutions, most at no-binding floor
Reference: wild-type JUN-FOS pair
Reading: higher = stronger binding
Starting sequence: JUN, bZIP domain (human); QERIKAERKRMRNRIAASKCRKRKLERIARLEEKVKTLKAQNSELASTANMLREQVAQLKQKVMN; partner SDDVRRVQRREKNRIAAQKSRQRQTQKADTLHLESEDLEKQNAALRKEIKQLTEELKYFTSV
Change | binding fitness
A40D | 0.021 natural log
K36G | -0.0863 natural log
A29Y | -0.199 natural log
L45M | -0.27 natural log
E44Y | -0.152 natural log
E44K | 0.00332 natural log
R53T | -0.501 natural log
V35K | -0.291 natural log
N42V | -0.901 natural log
L45V | -1.23 natural log
R53L | -0.534 natural log
L38A | -0.268 natural log
L45N | -1.2 natural log
L52Q | -0.8 natural log
V35C | -0.0918 natural log
S43H | 0.00572 natural log
L38C | -0.711 natural log
L52F | -0.632 natural log
E44L | -0.123 natural log
V35I | -0.012 natural log
T48K | 0.0477 natural log
N42H | -0.0248 natural log
V35P | -1.2 natural log
R53H | -0.377 natural log

Repeated from above (set 2):
Change | normalised enrichment score
L9Q | -0.0334
L7F | -0.684
A3G | -0.748
K5A | -0.048
G13C | 0.0581
G13P | -0.241
A3H | 0.169
P1A | 0.172
P1E | 0.368
A3F | -0.113
